Measurements from different studies.
A part holds a random share of what one study measured.
UniProt O75385, sequence (whole entry, looked up): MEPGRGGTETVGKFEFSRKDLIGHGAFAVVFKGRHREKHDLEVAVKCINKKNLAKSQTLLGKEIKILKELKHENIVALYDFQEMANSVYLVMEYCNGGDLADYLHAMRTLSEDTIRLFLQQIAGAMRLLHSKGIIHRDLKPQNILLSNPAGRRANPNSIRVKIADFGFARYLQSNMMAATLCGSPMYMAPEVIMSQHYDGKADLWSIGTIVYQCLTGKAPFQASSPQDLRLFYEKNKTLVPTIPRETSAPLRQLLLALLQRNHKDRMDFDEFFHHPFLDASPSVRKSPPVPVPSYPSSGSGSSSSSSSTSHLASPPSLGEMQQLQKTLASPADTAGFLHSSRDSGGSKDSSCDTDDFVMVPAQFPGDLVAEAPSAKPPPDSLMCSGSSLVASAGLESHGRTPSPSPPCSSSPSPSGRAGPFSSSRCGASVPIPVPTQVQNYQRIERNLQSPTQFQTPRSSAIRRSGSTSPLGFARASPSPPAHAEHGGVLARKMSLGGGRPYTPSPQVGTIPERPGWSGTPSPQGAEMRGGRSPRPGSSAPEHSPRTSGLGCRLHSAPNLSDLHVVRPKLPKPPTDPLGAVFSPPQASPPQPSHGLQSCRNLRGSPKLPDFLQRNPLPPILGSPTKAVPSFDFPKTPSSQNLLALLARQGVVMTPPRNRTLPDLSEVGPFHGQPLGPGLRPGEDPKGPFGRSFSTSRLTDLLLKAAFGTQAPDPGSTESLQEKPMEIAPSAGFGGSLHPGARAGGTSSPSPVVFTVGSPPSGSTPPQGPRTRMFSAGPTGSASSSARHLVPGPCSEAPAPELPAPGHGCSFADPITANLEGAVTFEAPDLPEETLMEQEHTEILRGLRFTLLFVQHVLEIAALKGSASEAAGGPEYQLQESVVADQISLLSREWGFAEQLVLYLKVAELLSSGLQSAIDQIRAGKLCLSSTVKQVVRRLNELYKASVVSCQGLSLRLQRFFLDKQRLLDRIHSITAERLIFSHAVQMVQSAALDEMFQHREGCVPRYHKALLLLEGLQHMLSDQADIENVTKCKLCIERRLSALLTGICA
UniProt Q13557, sequence (whole entry, looked up): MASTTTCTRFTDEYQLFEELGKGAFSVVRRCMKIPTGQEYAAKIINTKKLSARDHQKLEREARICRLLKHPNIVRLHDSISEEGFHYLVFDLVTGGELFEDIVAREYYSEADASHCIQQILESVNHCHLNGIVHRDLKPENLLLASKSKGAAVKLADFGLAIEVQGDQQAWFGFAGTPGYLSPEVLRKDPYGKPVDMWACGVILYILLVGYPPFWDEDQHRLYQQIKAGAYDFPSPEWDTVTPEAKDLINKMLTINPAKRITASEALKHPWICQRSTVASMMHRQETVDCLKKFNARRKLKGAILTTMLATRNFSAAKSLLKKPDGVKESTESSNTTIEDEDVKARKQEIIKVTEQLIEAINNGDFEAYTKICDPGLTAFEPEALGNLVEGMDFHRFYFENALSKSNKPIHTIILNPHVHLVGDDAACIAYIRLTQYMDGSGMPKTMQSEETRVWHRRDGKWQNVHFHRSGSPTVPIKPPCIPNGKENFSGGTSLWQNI
UniProt Q04759, sequence (whole entry, looked up): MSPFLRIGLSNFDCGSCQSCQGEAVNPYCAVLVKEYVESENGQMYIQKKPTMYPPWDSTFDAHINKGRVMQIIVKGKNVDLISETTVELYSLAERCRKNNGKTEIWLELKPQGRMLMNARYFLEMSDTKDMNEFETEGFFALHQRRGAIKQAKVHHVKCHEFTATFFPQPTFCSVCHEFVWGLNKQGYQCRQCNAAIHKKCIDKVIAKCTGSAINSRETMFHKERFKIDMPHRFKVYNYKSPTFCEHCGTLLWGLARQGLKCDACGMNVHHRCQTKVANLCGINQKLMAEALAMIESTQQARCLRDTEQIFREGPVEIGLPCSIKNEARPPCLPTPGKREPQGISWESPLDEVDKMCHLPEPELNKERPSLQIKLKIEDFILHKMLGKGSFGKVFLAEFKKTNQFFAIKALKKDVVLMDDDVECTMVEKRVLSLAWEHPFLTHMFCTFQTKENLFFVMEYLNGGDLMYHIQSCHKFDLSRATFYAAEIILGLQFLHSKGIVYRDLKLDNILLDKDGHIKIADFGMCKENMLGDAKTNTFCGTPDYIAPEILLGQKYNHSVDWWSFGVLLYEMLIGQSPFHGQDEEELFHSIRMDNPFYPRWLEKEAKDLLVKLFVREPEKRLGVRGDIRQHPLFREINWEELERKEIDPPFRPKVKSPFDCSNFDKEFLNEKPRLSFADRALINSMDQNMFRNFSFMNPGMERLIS
UniProt O43283, sequence (whole entry, looked up): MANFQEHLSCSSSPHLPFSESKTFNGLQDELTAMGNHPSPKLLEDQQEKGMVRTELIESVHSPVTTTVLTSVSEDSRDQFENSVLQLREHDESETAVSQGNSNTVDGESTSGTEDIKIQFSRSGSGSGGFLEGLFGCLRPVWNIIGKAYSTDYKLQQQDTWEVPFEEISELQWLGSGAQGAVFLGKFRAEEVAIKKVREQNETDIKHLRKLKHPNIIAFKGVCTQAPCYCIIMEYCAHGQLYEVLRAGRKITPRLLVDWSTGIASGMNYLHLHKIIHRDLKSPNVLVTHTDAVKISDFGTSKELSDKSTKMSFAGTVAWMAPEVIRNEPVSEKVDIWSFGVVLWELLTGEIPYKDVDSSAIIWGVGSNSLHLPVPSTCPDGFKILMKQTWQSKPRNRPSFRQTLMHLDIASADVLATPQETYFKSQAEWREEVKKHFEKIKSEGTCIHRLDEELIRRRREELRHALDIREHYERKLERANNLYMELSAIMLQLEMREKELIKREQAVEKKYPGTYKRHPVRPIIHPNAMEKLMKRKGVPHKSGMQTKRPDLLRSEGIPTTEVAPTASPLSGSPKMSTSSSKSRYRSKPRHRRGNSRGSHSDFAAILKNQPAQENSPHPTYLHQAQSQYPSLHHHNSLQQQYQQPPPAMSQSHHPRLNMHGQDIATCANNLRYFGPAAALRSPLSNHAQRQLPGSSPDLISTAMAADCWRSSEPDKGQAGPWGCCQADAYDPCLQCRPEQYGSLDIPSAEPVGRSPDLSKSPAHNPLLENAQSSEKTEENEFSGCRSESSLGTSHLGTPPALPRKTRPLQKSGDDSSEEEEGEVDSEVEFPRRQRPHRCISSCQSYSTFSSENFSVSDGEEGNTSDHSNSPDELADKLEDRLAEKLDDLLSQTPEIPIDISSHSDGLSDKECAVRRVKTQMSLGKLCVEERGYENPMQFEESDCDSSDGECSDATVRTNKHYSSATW
UniProt P54760, sequence (whole entry, looked up): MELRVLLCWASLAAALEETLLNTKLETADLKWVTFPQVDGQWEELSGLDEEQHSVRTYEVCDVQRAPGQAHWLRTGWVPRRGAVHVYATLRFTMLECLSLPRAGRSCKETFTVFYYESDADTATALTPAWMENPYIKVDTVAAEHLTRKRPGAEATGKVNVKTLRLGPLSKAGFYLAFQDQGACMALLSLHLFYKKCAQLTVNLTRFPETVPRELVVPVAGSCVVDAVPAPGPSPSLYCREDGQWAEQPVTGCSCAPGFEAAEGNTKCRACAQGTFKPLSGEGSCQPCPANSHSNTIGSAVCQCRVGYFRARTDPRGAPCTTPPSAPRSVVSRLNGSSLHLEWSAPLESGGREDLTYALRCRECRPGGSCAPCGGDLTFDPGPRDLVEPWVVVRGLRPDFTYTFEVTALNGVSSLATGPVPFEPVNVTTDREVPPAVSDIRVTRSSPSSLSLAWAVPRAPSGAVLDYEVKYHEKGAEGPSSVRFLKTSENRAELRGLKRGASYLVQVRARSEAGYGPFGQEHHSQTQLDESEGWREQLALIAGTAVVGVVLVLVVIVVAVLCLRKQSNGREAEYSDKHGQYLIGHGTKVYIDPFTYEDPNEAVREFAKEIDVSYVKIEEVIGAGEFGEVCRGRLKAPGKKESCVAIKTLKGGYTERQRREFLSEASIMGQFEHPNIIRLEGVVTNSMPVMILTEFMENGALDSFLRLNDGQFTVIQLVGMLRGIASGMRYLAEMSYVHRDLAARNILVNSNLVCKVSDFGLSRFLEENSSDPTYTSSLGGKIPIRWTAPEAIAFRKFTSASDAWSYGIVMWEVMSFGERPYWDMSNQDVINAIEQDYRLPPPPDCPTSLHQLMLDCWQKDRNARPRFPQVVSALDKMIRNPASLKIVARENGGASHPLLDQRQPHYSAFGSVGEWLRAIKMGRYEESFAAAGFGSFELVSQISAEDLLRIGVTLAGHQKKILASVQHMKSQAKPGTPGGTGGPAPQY
UniProt P35626, sequence (whole entry, looked up): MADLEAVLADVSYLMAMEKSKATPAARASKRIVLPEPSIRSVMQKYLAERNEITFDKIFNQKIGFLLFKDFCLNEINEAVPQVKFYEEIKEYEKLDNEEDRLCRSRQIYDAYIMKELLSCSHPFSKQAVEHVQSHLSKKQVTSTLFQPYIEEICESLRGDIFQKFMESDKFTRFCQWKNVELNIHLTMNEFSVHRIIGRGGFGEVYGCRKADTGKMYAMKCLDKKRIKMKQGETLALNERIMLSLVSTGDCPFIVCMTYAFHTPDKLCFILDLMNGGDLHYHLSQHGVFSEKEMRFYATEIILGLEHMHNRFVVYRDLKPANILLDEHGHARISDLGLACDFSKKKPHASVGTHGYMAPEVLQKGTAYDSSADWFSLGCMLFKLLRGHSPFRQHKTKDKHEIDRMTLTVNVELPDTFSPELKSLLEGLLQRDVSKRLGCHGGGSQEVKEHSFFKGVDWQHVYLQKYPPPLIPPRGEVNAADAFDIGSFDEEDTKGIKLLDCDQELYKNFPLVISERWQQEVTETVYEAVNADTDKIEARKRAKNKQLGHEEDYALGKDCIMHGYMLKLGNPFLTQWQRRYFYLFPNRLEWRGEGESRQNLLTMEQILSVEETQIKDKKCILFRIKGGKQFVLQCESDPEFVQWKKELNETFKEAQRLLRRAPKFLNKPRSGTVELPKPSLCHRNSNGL

Study 1
Target: PABPC1L2, full length, GST fusion (mouse, UniProt A0ABA7IW68)
Technique: RNAcompete
Form: RNA
Matrix: in vitro
Tested at: 20 nM
Notes: 7-mer, probes averaged, single round
Reference: mean of 7-mers
Direction: higher = stronger binding
Target sequence (chain): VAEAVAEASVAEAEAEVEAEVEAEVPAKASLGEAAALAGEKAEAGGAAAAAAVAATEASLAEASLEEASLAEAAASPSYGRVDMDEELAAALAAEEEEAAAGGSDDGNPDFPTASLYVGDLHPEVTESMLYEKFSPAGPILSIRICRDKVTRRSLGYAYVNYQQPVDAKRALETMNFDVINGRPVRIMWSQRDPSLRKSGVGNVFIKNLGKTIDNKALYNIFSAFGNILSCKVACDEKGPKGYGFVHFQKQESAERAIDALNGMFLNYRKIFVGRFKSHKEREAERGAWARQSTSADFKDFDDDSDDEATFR
Sequence | 7-mer Z-score
GGCUGAC | 0.138
CGGUGGG | -0.0174
UUCAGAC | -0.17
ACGCUGU | -0.289
UCCAGAG | -0.257
GACGGGC | 0.157
UGUUUAA | -0.166
CGACCUG | -0.331

Study 2
Target: TAR DNA-binding protein 43, full length, His tag (TARDBP, Homo sapiens, UniProt Q13148, residues 1-414)
Technique: RNA Bind-n-Seq
Form: RNA
Matrix: in vitro
Tested at: 20 nM
Notes: 6-mer, flanks averaged, single round
With: 150 mM LiCl
Reference: input library
Direction: higher = stronger binding
Sequence | 6-mer enrichment (R)
ACGCCG | 0.871
UAUCUA | 0.876
GUGUAG | 1.35
ACAGAG | 0.872
AAUAUC | 0.869
ACAUGU | 0.94
AGUUCG | 0.901
ACCAGC | 0.881

Study 3
SMILES: Cc1cncc2cccc(S(=O)(=O)N3CCCN(C(=O)CN)C[C@@H]3C)c12
Read-out: enzyme activity
Mode: inhibitor
Tested at: 0.5 µM
Reference: control
target | remaining activity [%]
TGFBR2 (Homo sapiens, UniProt P37173) | 132
CAMK2D (Homo sapiens, UniProt Q13557) | 108
NEK2 (Homo sapiens, UniProt P51955) | 105
Cyclin-dependent kinase 4, with cyclin D1 (CDK4, Homo sapiens, UniProt P11802) | 114

Study 4
Structure (SMILES): CC(=O)c1c(NS(C)(=O)=O)c2cc(-c3ccc(Cl)cc3)c(-c3ccc(Cl)cc3Cl)nc2n(C)c1=O
Read-out: cell-free assay
Technique: competition with immobilised ligand
Tested at: 1 µM
target | remaining binding [%]
EPHB4 (Homo sapiens, UniProt P54760) | 92
IRAK4 (Homo sapiens, UniProt Q9NWZ3) | 95
NTRK3 (Homo sapiens, UniProt Q16288) | 98
GRK3 (Homo sapiens, UniProt P35626) | 100
GRK4 (Homo sapiens, UniProt P32298) | 94
ULK1 (Homo sapiens, UniProt O75385) | 67
IKBKB (Homo sapiens, UniProt O14920) | 98
PIK3C2G (Homo sapiens, UniProt O75747) | 91
MYLK3 (Homo sapiens, UniProt Q32MK0) | 91
CAMK2G (Homo sapiens, UniProt Q13555) | 100
PRKCQ (Homo sapiens, UniProt Q04759) | 100
Ribosomal protein S6 kinase alpha-5, N-terminal kinase domain (RPS6KA5, Homo sapiens, UniProt O75582) | 100
FRK (Homo sapiens, UniProt P42685) | 100
MAP3K13 (Homo sapiens, UniProt O43283) | 71
MARK1 (Homo sapiens, UniProt Q9P0L2) | 100
Insulin receptor (INSR, Homo sapiens, UniProt P06213) | 73
TSSK3 (Homo sapiens, UniProt Q96PN8) | 100

For quick reference, copied from above (study 1):
Sequence | 7-mer Z-score
UUCAGAC | -0.17
ACGCUGU | -0.289
UCCAGAG | -0.257
GACGGGC | 0.157
UGUUUAA | -0.166
